Measured values gathered from unrelated publications.
Each line is one published result; not all experiments were run side by side. Several values in a cell are separate wells, animals, samples, runs or records. ± marks the error that the study gave.
lecA: PA-I galactophilic lectin (lecA, Pseudomonas aeruginosa, UniProt Q05097)
Sequence of UniProt Q05097 (whole entry, looked up): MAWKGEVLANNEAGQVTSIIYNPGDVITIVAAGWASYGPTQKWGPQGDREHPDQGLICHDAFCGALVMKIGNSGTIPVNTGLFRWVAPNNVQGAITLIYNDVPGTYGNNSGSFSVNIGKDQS
Histone chaperone ASF1A: Histone chaperone ASF1A (Homo sapiens, UniProt Q9Y294)
Sequence of UniProt Q9Y294 (whole entry, looked up): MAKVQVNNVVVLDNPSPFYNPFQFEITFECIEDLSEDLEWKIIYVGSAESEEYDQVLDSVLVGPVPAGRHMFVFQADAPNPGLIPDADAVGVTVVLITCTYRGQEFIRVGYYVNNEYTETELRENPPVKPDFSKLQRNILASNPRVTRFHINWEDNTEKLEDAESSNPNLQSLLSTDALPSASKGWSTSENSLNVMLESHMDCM
Complement C3: Complement C3 (Homo sapiens, UniProt P01024)
Sequence of UniProt P01024 (whole entry, looked up): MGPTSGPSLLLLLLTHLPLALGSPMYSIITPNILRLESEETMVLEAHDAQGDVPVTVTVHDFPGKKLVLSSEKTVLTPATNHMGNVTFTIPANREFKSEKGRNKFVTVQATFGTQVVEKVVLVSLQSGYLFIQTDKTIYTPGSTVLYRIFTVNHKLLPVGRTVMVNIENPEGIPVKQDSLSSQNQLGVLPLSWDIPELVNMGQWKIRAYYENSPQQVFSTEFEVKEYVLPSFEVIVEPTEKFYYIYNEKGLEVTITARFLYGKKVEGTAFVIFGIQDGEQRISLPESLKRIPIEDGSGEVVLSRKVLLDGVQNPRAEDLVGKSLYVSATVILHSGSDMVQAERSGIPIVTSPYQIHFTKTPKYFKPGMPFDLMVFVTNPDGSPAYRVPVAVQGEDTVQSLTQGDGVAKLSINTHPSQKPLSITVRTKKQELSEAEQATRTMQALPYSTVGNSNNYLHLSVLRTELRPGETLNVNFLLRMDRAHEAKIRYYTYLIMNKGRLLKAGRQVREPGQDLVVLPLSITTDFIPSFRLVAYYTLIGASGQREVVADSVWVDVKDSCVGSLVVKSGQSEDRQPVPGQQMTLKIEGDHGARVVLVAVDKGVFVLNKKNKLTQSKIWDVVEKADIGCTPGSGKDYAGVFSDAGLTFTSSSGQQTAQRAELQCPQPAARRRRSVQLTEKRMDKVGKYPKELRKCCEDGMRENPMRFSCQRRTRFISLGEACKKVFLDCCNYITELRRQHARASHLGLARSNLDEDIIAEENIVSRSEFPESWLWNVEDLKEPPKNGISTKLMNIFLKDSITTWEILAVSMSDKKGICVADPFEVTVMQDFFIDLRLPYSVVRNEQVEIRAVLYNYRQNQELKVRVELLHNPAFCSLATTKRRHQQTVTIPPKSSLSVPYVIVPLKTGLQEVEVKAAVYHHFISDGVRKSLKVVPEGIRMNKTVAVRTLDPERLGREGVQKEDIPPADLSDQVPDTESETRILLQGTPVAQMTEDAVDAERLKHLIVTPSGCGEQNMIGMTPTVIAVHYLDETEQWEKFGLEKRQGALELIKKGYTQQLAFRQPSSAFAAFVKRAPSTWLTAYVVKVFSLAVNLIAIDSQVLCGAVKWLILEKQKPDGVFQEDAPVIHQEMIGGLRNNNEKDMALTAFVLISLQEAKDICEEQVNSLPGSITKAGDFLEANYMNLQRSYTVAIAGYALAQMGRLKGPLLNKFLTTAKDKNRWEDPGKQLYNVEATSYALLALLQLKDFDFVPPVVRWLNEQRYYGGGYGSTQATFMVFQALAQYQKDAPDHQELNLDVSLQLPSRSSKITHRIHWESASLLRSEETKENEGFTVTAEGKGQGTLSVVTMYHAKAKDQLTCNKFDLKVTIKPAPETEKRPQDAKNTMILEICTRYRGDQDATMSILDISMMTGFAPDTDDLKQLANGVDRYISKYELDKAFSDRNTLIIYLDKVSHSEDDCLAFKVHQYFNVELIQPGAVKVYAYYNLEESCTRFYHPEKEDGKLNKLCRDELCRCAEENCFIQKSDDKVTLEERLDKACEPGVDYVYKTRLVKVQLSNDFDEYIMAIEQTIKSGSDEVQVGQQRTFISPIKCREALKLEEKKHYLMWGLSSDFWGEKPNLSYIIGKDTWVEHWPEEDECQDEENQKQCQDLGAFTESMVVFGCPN
Sequence of UniProt Q9H7B4 (whole entry, looked up): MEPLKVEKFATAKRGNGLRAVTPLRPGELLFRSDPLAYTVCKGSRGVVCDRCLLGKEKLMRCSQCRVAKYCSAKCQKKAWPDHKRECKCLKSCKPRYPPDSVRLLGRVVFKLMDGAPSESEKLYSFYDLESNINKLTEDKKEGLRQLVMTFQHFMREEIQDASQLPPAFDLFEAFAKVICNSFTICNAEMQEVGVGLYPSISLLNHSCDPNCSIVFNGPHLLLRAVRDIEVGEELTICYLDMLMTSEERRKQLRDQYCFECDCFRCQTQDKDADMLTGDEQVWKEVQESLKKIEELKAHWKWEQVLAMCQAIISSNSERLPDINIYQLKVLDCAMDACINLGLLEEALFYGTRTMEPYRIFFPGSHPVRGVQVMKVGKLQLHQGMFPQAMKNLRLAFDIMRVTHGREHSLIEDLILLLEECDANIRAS
Sequence of UniProt P78417 (whole entry, looked up): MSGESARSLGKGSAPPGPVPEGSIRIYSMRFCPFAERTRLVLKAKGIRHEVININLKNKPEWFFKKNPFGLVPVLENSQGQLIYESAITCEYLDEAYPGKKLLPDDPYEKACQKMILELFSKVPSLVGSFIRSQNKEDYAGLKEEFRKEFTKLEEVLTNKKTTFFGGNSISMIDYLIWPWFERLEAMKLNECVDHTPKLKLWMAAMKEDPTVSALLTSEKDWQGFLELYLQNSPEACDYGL
Sequence of UniProt Q14833 (whole entry, looked up): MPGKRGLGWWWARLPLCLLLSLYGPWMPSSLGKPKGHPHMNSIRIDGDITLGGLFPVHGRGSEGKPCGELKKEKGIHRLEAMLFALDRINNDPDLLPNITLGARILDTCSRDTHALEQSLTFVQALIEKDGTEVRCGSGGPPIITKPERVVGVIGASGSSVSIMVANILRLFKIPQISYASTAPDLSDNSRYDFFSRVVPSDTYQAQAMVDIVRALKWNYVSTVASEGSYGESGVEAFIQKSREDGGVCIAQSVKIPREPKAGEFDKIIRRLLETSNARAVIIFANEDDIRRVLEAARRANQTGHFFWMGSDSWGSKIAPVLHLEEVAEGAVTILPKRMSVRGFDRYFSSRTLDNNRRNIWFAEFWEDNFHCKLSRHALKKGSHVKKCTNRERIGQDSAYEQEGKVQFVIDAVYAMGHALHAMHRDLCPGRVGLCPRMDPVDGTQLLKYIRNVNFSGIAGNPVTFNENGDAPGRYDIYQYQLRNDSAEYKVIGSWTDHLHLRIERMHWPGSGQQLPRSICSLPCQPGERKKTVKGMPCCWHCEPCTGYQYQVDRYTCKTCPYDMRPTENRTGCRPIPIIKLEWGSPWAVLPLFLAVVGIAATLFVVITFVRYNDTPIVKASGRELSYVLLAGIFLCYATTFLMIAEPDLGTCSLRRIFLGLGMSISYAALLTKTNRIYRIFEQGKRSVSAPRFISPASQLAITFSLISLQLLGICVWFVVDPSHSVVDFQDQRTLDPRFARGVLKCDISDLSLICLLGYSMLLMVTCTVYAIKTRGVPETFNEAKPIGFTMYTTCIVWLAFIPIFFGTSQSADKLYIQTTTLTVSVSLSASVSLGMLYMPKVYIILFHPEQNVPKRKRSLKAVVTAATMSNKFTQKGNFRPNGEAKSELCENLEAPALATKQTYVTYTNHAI
Sequence of UniProt O14786 (whole entry, unmodified, looked up): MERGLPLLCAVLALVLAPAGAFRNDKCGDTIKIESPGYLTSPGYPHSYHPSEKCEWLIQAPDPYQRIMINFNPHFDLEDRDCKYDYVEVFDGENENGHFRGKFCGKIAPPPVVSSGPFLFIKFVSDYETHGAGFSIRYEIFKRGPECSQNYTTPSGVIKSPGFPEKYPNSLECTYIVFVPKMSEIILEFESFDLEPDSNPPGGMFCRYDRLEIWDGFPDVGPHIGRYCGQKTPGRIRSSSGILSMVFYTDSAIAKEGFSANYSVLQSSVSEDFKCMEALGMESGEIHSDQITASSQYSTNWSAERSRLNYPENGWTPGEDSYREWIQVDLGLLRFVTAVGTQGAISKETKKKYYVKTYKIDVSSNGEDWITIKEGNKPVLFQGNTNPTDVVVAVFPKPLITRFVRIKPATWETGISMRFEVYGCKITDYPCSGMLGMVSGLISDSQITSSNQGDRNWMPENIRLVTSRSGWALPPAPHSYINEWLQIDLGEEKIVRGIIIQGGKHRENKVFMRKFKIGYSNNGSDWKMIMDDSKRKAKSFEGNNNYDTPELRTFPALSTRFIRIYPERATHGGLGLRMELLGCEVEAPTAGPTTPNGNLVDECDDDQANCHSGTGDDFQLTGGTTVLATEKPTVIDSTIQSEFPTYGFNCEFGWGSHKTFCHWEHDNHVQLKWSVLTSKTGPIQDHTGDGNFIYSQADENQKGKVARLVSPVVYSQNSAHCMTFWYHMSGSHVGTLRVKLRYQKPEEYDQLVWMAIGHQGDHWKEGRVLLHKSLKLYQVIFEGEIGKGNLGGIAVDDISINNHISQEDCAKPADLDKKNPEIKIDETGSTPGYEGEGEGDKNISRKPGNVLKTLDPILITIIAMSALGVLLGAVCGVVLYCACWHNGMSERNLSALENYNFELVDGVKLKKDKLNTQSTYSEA
Sequence of UniProt P21397 (whole entry, looked up): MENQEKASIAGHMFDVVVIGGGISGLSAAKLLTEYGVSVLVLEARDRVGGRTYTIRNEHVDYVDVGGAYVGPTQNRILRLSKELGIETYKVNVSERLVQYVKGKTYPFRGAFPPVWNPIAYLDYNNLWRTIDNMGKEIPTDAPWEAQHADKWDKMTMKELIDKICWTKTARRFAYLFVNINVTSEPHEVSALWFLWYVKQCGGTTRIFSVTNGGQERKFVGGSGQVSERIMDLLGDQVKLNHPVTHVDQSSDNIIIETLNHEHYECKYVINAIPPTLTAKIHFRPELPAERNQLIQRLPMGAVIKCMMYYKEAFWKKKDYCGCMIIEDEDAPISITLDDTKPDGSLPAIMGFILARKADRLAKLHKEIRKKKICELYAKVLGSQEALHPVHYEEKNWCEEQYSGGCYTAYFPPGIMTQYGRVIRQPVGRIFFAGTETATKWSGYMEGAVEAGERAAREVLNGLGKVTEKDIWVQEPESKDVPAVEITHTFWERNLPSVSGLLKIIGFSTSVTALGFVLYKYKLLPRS

Structure (SMILES)	target	test	test system	conditions	how to read	measurement	result
CCOC(=O)C1=CN([C@@H]2O[C@H](CO)[C@@H](O)[C@H]2O)C=CC1	SIRT5 (Homo sapiens, UniProt Q9NXA8)	isothermal titration calorimetry		concentration not given, without NAD+		−TΔS of binding	negative
C=C1CCN2C(=O)COc3cccc(c3)C(CCc3ccc(OC)c(OC)c3)OC(=O)C3CCCCN3C(=O)C(=O)C(C)(C)COC(=O)C(C(F)(F)F)NC(=O)C2C1 (centres unmarked)	FKBP1A/MAPRE1 (Homo sapiens, UniProt P62942+Q15691)	FKBP12-MAPRE1 proximity, TR-FRET			reference: DMSO	Emax	27%
CC1(C)CCOC1CN1CCOCC1Cc1c[nH]c2ccccc12 (centres unmarked)	HTR2B (Homo sapiens, UniProt P41595)	β-arrestin recruitment, agonist				Emax	116%
N=C(N)NCCC[C@@H](N)C(=O)N1CCC[C@@H]1C(=O)N1CCC[C@@H]1C(=O)N[C@H](CCCNC(=N)N)C(=O)N[C@H](CCC(=O)O)C(=O)NCC(=O)N[C@H](CCCNC(=N)N)C(N)=O	Neuropilin-1 (NRP1, Homo sapiens, UniProt O14786)	SPR				binding free energy ΔG	-9.61 kcal/mol
CC[C@H](C)[C@H](NC(=O)[C@@H]1CSSC[C@H](NC(=O)[C@@H](NC(C)=O)[C@@H](C)CC)C(=O)N[C@@H](C(C)C)C(=O)N[C@@H](Cc2cn(C)c3ccccc23)C(=O)N[C@@H](CCC(N)=O)C(=O)N[C@@H](CC(=O)O)C(=O)N[C@@H](Cc2c[nH]c3ccccc23)C(=O)NCC(=O)N[C@@H](C)C(=O)N[C@@H](Cc2c[nH]cn2)C(=O)N[C@@H](CCCNC(=N)N)C(=O)N1)C(N)=O	Complement C3, C3b fragment (Homo sapiens, UniProt P01024)	SPR		25 °C	reference: [Trp(Me)4]-Ac-compstatin	relative association rate constant	1
OC[C@H]1O[C@@H](Oc2ccc(OCCc3cn([C@H]4[C@H](O)[C@@H](O)[C@H](c5cn([C@H]6[C@H](O)[C@@H](O)[C@H](n7cc(CCOc8ccc(O[C@@H]9O[C@H](CO)[C@H](O)[C@H](O)[C@H]9O)cc8)nn7)O[C@@H]6CO)nn5)O[C@@H]4CO)nn3)cc2)[C@H](O)[C@@H](O)[C@H]1O	lecA	isothermal titration calorimetry		298 K		-TΔS	5.9 ± 1 kcal/mol
Cc1cc(=O)c2c(O)c3c(OC4OC(CO)C(O)C(O)C4O)cccc3cc2o1 (centres unmarked)	MAOA (Homo sapiens, UniProt P21397)	inhibitor, Lineweaver-Burk secondary plot		uncompetitive component		Kiu	12.3 µM
CC[C@H](C)[C@H](NC(=O)[C@H](CCCNC(=N)N)NC(=O)NC[C@H](CCC(N)=O)NC(=O)NC[C@H](CC(C)C)NC(=O)NC[C@H](CCCNC(=N)N)NC(=O)NC[C@H](Cc1ccc2ccccc2c1)NC(=O)[C@H](CCCNC(=N)N)NC(=O)[C@H](CCC(=O)O)NC(C)=O)C(=O)N[C@@H](C)C(N)=O	Histone chaperone ASF1A	isothermal titration calorimetry		concentration not given, pH 7.5, 20 °C		binding stoichiometry	1.1 ± 0.1
NC[C@@H]1O[C@H](O[C@H]2[C@@H](O)[C@H](O[C@@H]3[C@@H](O)[C@H](N)C[C@H](N)[C@H]3O[C@H]3O[C@H](CN)[C@@H](O)[C@H](O)[C@H]3N)O[C@@H]2CO)[C@H](N)[C@@H](O)[C@@H]1O	poly(dA)·2poly(dT) triplex	ITC		concentration not given, pH 6.8, 20 °C, KCl 150 mM		binding enthalpy	-7.5 ± 0.2 kcal/mol
CC[C@H](C)[C@H](NC(=O)[C@H](CO)NC(=O)[C@H](Cc1ccc(O)cc1)NC(=O)[C@H](CC(=O)O)NC(=O)[C@H](CO)NC(=O)[C@@H](NC(=O)[C@H](Cc1ccccc1)NC(=O)[C@@H](NC(=O)CNC(=O)[C@H](CCC(=O)O)NC(=O)[C@H](C)NC(=O)[C@@H](N)Cc1ccc(O)cc1)[C@@H](C)O)[C@@H](C)CC)C(=O)N[C@@H](C)C(=O)N[C@@H](CCSC)C(=O)N[C@@H](CC(=O)O)C(=O)N[C@@H](CCCCN)C(=O)N[C@H](C(=O)N[C@@H](CCCNC(=N)N)C(=O)N[C@@H](CCC(N)=O)C(=O)N[C@@H](CCC(N)=O)C(=O)N[C@@H](CC(=O)O)C(=O)N[C@@H](Cc1ccccc1)C(=O)N[C@H](C(=O)N[C@@H](CC(N)=O)C(=O)N[C@@H](Cc1c[nH]c2ccccc12)C(=O)N[C@@H](CC(C)C)C(=O)N[C@@H](CC(C)C)C(=O)N[C@@H](C)C(=O)N[C@@H](CCC(N)=O)C(=O)N[C@@H](CCCNC(=N)N)C(=O)NCC(=O)N[C@@H](CCCCN)C(=O)N[C@@H](CCCCN)C(=O)N[C@@H](CO)C(=O)N[C@@H](CC(=O)O)C(=O)N[C@@H](Cc1c[nH]c2ccccc12)C(=O)N[C@@H](CCCCN)C(=O)N[C@@H](Cc1c[nH]cn1)C(=O)N[C@@H](CC(N)=O)C(=O)N[C@H](C(=O)N[C@H](C(=O)N[C@@H](CCC(N)=O)C(=O)O)[C@@H](C)O)[C@@H](C)CC)C(C)C)[C@@H](C)CC	Gastric inhibitory polypeptide receptor (Rattus norvegicus, UniProt P43219)	cAMP, agonist	COS-7			Emax	120%
C[C@]12CC[C@H]3[C@@H](CCC4=CC(=O)CC[C@@]43C)[C@@H]1CC[C@@H]2C(=O)CO	CYP11B2 (Homo sapiens, UniProt P19099)	binding, spectral titration		CYP11B2 1 µM, together with: adrenodoxin 10-fold		maximal absorbance change	0.093
CC[C@H](C)[C@H](NC(=O)[C@H](CCCNC(=N)N)NC(=O)NC[C@H](CCC(N)=O)NC(=O)NC[C@H](CC(C)C)NC(=O)NC[C@H](CCCNC(=N)N)NC(=O)NC[C@H](Cc1c[nH]c2ccccc12)NC(=O)[C@H](CCCCN)NC(=O)[C@H](CCC(=O)O)NC(C)=O)C(=O)N[C@@H](C)C(N)=O	Histone chaperone ASF1A	isothermal titration calorimetry		concentration not given, pH 7.5, 20 °C		binding stoichiometry	1.2 ± 0.2
N=C(N)NC(N)=S	Serine/threonine-protein phosphatase PP1-beta catalytic subunit, holoenzyme with MYPT1 (PPP1CB, Sus scrofa, UniProt P61292)			10 mM		MLCP inhibition	no inhibition
C=C(NC(=O)C(=C)NC(=O)c1csc(C2=NC3c4csc(n4)C4NC(=O)c5csc(n5)C(C(C)(O)C(C)O)NC(=O)C5CSC(=N5)C(=CC)NC(=O)C(C(C)O)NC(=O)c5csc(n5)C3(CC2)NC(=O)C(CCC(N)=O)NC(=O)C(=C)NC(=O)C(C)NC(=O)C(C(C)CC)NC2C=Cc3c(C(C)O)cc(nc3C2O)C(=O)OC4C)n1)C(N)=O (centres unmarked)	PSMB5 (Homo sapiens, UniProt P28074)	chymotrypsin-like activity, inhibitor		together with: Suc-Leu-Leu-Val-Tyr-AMC	reference: thiostrepton A	fold loss of potency	4 fold
Nc1ncnc2c1ncn2[C@H]1C[C@H](O)[C@@H](COP(=O)(O)OP(=O)(O)[C@@H](F)P(=O)(O)O)O1	DNA polymerase eta (POLH, Homo sapiens, UniProt Q9Y253)	dNTP incorporation, single-turnover kinetics		W sequence, A·T pair	reference: non-enzymatic LFER line	delta effective pKa4	0.2 pK units
CC1(C)CCN(Cc2ccc(C(=O)NC[C@]3(O)CCCN(c4cc(NCc5ccccc5)ncn4)C3)c(O)c2)CC1	SMYD3 (Homo sapiens, UniProt Q9H7B4)	enzyme activity		10 µM, together with: 1 µM SAM		remaining activity	88% and 92%
O[C@@H]1[C@@H](O)[C@H](O[C@@H]2OC[C@@H](O)[C@H](O)[C@H]2O)C[C@H]2O[C@@H]12	endo-1,4-beta-xylanase (Aspergillus aculeatus, UniProt A0A1L9WG58)	covalent inhibitor		pH 5.0, together with: 4MU-beta-D-xylobioside		kinact/KI	4330 M⁻¹ s⁻¹
O=c1c(-c2cnn(-c3ccccc3)c2)c(C(F)(F)F)oc2c(O)c(O)ccc12	Cullin-4A, in CRL4-CRBN complex (CUL4A, Homo sapiens, UniProt Q13619)	CK1α ubiquitination by CRL4-CRBN, inhibitor				inhibitory concentration	30 µM
COc1ccc(S(=O)(=O)N2CCN(CC(=O)Nc3ccc(OC)cc3OC)C(=O)C2)cc1	GRM4 (Homo sapiens, UniProt Q14833)	calcium mobilization, positive allosteric modulator	CHO cells expressing Gqi5	together with: glutamate	reference: PHCCC maximal response	maximal response	18.1 ± 1.3%
CC1CCCN(CCCNC(=O)C2=Cc3sc4c(c3CS2)CCCC4)C1 (centres unmarked)	Catenin beta-1, with BCL9 (CTNNB1, Homo sapiens, UniProt P35222)	BCL9 co-immunoprecipitation, inhibitor, co-immunoprecipitation	COLO 320 and HCT-116	16 h		IC50	1000 nM
O=C(NCC1CO1)Oc1ccc([N+](=O)[O-])cc1 (racemic)	Epoxide hydrolase 1 (Ephx1, Rattus norvegicus, UniProt P07687)	substrate, absorbance		50 µM, pH 9.0, 37 °C, rat enzyme		signal to background ratio	1
CC(=O)N[C@H]1[C@@H](OP(=O)(O)OP(=O)(O)OC[C@H]2O[C@@H](n3ccc(=O)[nH]c3=O)[C@H](O)[C@@H]2O)O[C@H](CO)[C@@H](O)[C@@H]1O	OGT (Homo sapiens, UniProt O15294)	enzyme activity, substrate		together with: Nup62 acceptor		donor turnover rate	12.1 pmol/min/mg
CC[C@H](C)[C@H](NC(C)=O)C(=O)N[C@H]1CSSC[C@@H](C(=O)N[C@H](C(N)=O)[C@@H](C)O)NC(=O)[C@H](CCCNC(=N)N)NC(=O)[C@H](Cc2c[nH]cn2)NC(=O)[C@H](C)NC(=O)CNC(=O)[C@H](Cc2c[nH]c3ccccc23)NC(=O)[C@H](CC(=O)O)NC(=O)[C@H](CCC(N)=O)NC(=O)[C@H](Cc2ccc(O)cc2)NC(=O)[C@H](C(C)C)NC1=O	Complement C3	ITC		25 °C	more negative = stronger binding	ΔG	-8.6 kcal/mol
COc1ccc(CCCN[C@H]2CCC[C@@H]2CN[C@H]2CCC[C@@H]2CNCCCCN[C@@H]2CCC[C@H]2CN)cc1	KDM1B (Homo sapiens, UniProt Q8NB78)	peroxidase-coupled			reference: Ki for KDM1B over Ki for LSD1	selectivity ratio	1.8
O=C(NC1CCCCC1)C(c1cccnc1)N(C(=O)CCl)c1ccc(F)cc1 (racemic)	GSTO1 (Homo sapiens, UniProt P78417)	LC-MS/MS		sum of normalized AUCs		total modified species	100%
Nc1ncnc2c1ncn2[C@@H]1O[C@H](CO)[C@@H](O[C@H]2O[C@H](CO)[C@@H](OP(=O)(O)O)[C@H](OP(=O)(O)O)[C@H]2O)[C@H]1O	Itpr1 (Rattus norvegicus, UniProt P29994, del318-332/R568Q)	Ca2+ release	DT40, permeabilized		reference: R568Q over wild type	fold loss of potency	1.6 fold
O=C(COc1ccc2ccccc2c1)N[C@@H](Cc1cn(CCNC(=O)c2ccc(S[C@@H]3O[C@H](CO)[C@H](O)[C@H](O)[C@H]3O)cc2)nn1)C(=O)NCCO	lecA	isothermal titration calorimetry		concentration not given		binding stoichiometry	1.1 ± 0.1
CC[C@H](C)[C@H](NC(C)=O)C(=O)N[C@H]1CSSC[C@@H](C(=O)N[C@H](C(N)=O)[C@@H](C)O)NC(=O)[C@H](CCCNC(=N)N)NC(=O)[C@H](Cc2c[nH]cn2)NC(=O)[C@H](C)NC(=O)CNC(=O)[C@H](Cc2c[nH]c3ccccc23)NC(=O)[C@H](CC(=O)O)NC(=O)[C@H](CCC(N)=O)NC(=O)[C@H](Cc2ccc(OC)cc2)NC(=O)[C@H](C(C)C)NC1=O	Complement C3	ITC		pH 7.4, 25 °C		−TΔS	8.5 kcal/mol
O=C1c2ccc(O)cc2O[C@@H](c2ccc(O)cc2)[C@@H]1[C@@H]1C(=O)c2ccc(O)cc2O[C@H]1c1ccc(O)cc1	laccase (Trametes versicolor)	substrate		product formation		Km	9.17 ± 0.615 mM

Some of these lines once more:
Structure (SMILES)	target	test	test system	conditions	how to read	measurement	result
OC[C@H]1O[C@@H](Oc2ccc(OCCc3cn([C@H]4[C@H](O)[C@@H](O)[C@H](c5cn([C@H]6[C@H](O)[C@@H](O)[C@H](n7cc(CCOc8ccc(O[C@@H]9O[C@H](CO)[C@H](O)[C@H](O)[C@H]9O)cc8)nn7)O[C@@H]6CO)nn5)O[C@@H]4CO)nn3)cc2)[C@H](O)[C@@H](O)[C@H]1O	lecA	isothermal titration calorimetry		298 K		-TΔS	5.9 ± 1 kcal/mol
O[C@@H]1[C@@H](O)[C@H](O[C@@H]2OC[C@@H](O)[C@H](O)[C@H]2O)C[C@H]2O[C@@H]12	endo-1,4-beta-xylanase (Aspergillus aculeatus, UniProt A0A1L9WG58)	covalent inhibitor		pH 5.0, together with: 4MU-beta-D-xylobioside		kinact/KI	4330 M⁻¹ s⁻¹
CC[C@H](C)[C@H](NC(C)=O)C(=O)N[C@H]1CSSC[C@@H](C(=O)N[C@H](C(N)=O)[C@@H](C)O)NC(=O)[C@H](CCCNC(=N)N)NC(=O)[C@H](Cc2c[nH]cn2)NC(=O)[C@H](C)NC(=O)CNC(=O)[C@H](Cc2c[nH]c3ccccc23)NC(=O)[C@H](CC(=O)O)NC(=O)[C@H](CCC(N)=O)NC(=O)[C@H](Cc2ccc(O)cc2)NC(=O)[C@H](C(C)C)NC1=O	Complement C3	ITC		25 °C	more negative = stronger binding	ΔG	-8.6 kcal/mol
C[C@]12CC[C@H]3[C@@H](CCC4=CC(=O)CC[C@@]43C)[C@@H]1CC[C@@H]2C(=O)CO	CYP11B2 (Homo sapiens, UniProt P19099)	binding, spectral titration		CYP11B2 1 µM, together with: adrenodoxin 10-fold		maximal absorbance change	0.093
